# Experimental data collected from several papers.
# A part holds a random share of what one study measured.

# Series 1 — technique: protein-binding microarray; molecule type: double-stranded DNA, one strand shown; medium: in vitro; concentration: not given; reading: higher = stronger binding
# Target: Transcriptional repressor CTCF (CTCF, Homo sapiens, UniProt P49711, residues 1-727, full length assumed)
# Notes: k-mer, scored over probes, only values ≥0.25
# Residues (chain): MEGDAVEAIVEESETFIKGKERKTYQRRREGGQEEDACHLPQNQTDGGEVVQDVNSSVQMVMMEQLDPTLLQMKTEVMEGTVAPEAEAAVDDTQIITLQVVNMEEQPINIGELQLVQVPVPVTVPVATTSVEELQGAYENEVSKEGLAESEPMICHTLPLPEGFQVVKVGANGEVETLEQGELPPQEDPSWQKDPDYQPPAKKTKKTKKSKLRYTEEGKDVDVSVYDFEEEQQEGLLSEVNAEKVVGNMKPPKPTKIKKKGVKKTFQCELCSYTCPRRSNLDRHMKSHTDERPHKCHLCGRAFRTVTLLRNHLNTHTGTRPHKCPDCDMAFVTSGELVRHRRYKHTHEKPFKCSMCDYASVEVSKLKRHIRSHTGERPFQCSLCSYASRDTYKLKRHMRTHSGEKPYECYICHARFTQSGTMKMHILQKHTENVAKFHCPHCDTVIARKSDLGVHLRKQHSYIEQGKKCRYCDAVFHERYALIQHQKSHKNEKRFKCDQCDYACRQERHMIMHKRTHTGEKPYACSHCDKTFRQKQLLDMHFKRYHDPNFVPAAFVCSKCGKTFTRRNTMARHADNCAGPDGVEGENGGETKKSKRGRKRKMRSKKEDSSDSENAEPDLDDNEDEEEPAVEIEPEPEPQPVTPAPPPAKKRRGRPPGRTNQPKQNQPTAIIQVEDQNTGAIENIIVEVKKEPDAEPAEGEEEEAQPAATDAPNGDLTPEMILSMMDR
Strand,E-score
GGAATTAA,0.278
AGTATAAT,0.299
AACGTAAT,0.274

# Series 2 — technique: universal PBM; molecule type: double-stranded DNA, one strand shown; medium: in vitro; concentration: not given; reading: higher = stronger binding
# Target: Sal-like protein 4, full length isoform B (SALL4, Homo sapiens, UniProt Q9UJQ4-2, residues 1-616)
# Notes: 8-mer, flanks averaged, mean of replicates
Strand,E-score
ACACCAAC,-0.117
CTTATGTC,0.0534
CATCTTAC,0.0372
CAAAAATG,0.221

# Series 3 — technique: protein binding microarray; molecule type: double-stranded DNA, one strand shown; medium: in vitro; concentration: not given; relative to: not given; reading: higher = stronger binding
# Target: Histone acetyltransferase KAT6A, both winged helices, GST fusion (KAT6A, Homo sapiens, UniProt Q92794, residues 1-181)
# Notes: 8-mer, flanks averaged, mean of 2 arrays, mostly near background
# Target sequence (chain): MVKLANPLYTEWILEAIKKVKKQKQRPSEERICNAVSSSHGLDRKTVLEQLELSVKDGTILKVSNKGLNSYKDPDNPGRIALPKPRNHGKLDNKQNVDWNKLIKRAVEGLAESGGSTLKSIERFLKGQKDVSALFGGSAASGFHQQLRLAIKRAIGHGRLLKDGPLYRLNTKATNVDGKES
Strand,E-score
GCCGTAGC,0.303
ATTTAGAC,-0.0384
AGTGCTCA,-0.225

# Other studies, line by line
Molecule,target,test,system,setting,scale,quantity,result
"PhoQ, residues 284 288 289 292 302 303 SIHLQL","PhoP, residues 12 14 15 18 19 TTLRV (Escherichia coli, UniProt P23836)","Sort-seq, measured: YFP reporter",E. coli,"PhoQ-PhoP variant library, added: 10 µM Mg2+","relative to: high Mg2+ state, higher = stronger signaling",fold induction,8.53

# Repeated from above (series 2):
Strand,E-score
CTTATGTC,0.0534
